Measured values from different studies.
Protocols differ between the studies behind these lines. Values joined by “and” are separate records of one study, mostly repeats; a detail may differ. ± marks the error that the study gave.
UniProt Q8TCC7, sequence (whole entry, looked up): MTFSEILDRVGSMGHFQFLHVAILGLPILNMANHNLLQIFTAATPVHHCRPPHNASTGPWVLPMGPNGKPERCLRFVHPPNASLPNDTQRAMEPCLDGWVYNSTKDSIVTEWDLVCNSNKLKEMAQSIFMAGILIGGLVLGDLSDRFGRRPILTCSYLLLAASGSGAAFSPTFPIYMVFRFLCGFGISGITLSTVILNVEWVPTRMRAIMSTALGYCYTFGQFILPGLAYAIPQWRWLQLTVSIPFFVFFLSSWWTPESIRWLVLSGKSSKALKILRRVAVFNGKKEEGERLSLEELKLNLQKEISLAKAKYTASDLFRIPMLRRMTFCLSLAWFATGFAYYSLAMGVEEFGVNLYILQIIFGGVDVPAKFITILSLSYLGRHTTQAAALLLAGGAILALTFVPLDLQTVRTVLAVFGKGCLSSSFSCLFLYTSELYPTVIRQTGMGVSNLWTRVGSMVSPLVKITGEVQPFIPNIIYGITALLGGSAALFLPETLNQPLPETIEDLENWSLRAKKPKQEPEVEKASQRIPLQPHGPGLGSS

SMILES | tested on | assay | test system | conditions | scale | quantity | result
CSCC[C@H](N)C(=O)N[C@@H](C)C(=O)N[C@@H](CCCNC(=N)N)C(=O)N[C@@H](CCCNC(=N)N)C(=O)N[C@@H](CC(=O)O)C(=O)N[C@@H](CCCCN)C(=O)N[C@H](C(=O)N[C@@H](CC(=O)O)C(=O)N[C@@H](Cc1ccccc1)C(=O)N[C@@H](C)C(=O)N[C@@H](CCCNC(=N)N)C(=O)N[C@@H](CCCNC(=N)N)C(=O)N[C@@H](CCCNC(=N)N)C(=O)N[C@@H](CCCNC(=N)N)C(=O)NCCCCCC(=O)NCCCCC(NC(=O)CCCCCNC(=O)[C@H](CCCNC(=N)N)NC(=O)[C@H](CCCNC(=N)N)NC(=O)[C@H](CCCNC(=N)N)NC(=O)[C@H](CCCNC(=N)N)NC(=O)[C@H](C)NC(=O)[C@H](Cc1ccccc1)NC(=O)[C@H](CC(=O)O)NC(=O)[C@@H](NC(=O)[C@H](CCCCN)NC(=O)[C@H](CC(=O)O)NC(=O)[C@H](CCCNC(=N)N)NC(=O)[C@H](CCCNC(=N)N)NC(=O)[C@H](C)NC(=O)[C@@H](N)CCSC)[C@@H](C)O)C(=O)NCCCCC(NC(=O)C(CCCCNC(=O)CCCCCNC(=O)[C@H](CCCNC(=N)N)NC(=O)[C@H](CCCNC(=N)N)NC(=O)[C@H](CCCNC(=N)N)NC(=O)[C@H](CCCNC(=N)N)NC(=O)[C@H](C)NC(=O)[C@H](Cc1ccccc1)NC(=O)[C@H](CC(=O)O)NC(=O)[C@@H](NC(=O)[C@H](CCCCN)NC(=O)[C@H](CC(=O)O)NC(=O)[C@H](CCCNC(=N)N)NC(=O)[C@H](CCCNC(=N)N)NC(=O)[C@H](C)NC(=O)[C@@H](N)CCSC)[C@@H](C)O)NC(=O)CCCCCNC(=O)[C@H](CCCNC(=N)N)NC(=O)[C@H](CCCNC(=N)N)NC(=O)[C@H](CCCNC(=N)N)NC(=O)[C@H](CCCNC(=N)N)NC(=O)[C@H](C)NC(=O)[C@H](Cc1ccccc1)NC(=O)[C@H](CC(=O)O)NC(=O)[C@@H](NC(=O)[C@H](CCCCN)NC(=O)[C@H](CC(=O)O)NC(=O)[C@H](CCCNC(=N)N)NC(=O)[C@H](CCCNC(=N)N)NC(=O)[C@H](C)NC(=O)[C@@H](N)CCSC)[C@@H](C)O)C(N)=O)[C@@H](C)O (stereo partly shown) |  |  | C57BL/6 mouse female, spleen | dose not given, 6 h | baseline: total | tissue distribution | 1.26% and 1.04%
COc1cc(OC)c2c(=O)cc(-c3cc(C)c(OCCCN4CCN(C)CC4)c(C)c3)oc2c1 |  | refers to: Il6 mRNA | C57BL/6J mouse, male, bleomycin lung injury, lung | oral, 10 mg/kg, together with: bleomycin | baseline: untreated | fold induction | 13.8 ± 9 fold
C[C@H](O)[C@@H](NC(=O)[C@H]1CCCN1C(=O)[C@@H](CCCCN)NC(=O)[C@@H](CO)NC(=O)[C@@H](Cc1ccc(O)cc1)NC(=O)[C@@H](CC(N)=O)NC(=O)CCOCCOCCOCCNC(=O)CN1CCN(CC(=O)O)CCN(CC(=O)O)CCN(CC(=O)O)CC1)C(=O)N[C@H](CC(=O)O)C(=O)N[C@H](CCCNC(=N)N)C(=O)N[C@H](CCC(N)=O)C(=O)N[C@H](Cc1ccc(O)cc1)C(=O)N[C@H](Cc1c[nH]cn1)C(=O)N[C@H](Cc1ccccc1)C(N)=O [gallium-68 labelled] |  | ex vivo gamma counting | BALB/c nude mouse, U-87 MG xenograft, blood | intravenous, 1.85 MBq, 120 min |  | tissue uptake | 0.05 ± 0.01 %ID/g
O=C1NC2(CC2)COc2ncc(F)cc2[C@H]2COCCN2c2ccn3ncc1c3n2 |  |  | Sprague-Dawley rat, female, ovaries | oral, 20 mg/kg/day, 4 weeks |  | organ weight | 0.127 ± 0.023 g
COc1cc2c(cc1NC(=O)c1cncn1C)C[C@H]1[C@H]3CCCC[C@@]23CCN1C |  |  | Caco-2 | 10 µM, pH 6.5 |  | Papp B→A | 69.8 ×10⁻⁶ cm/s
COc1ccc(CNc2ccc3c(c2)S(=O)(=O)C=C3)cc1 |  |  | male C57BL/6 mice | i.p., 5 mg/kg, day 8, repeated dosing |  | spleen weight | 0.123 g
COc1ccccc1-c1n[nH]c2nc(NC3CCN(C(=O)Cc4ccc(F)cc4F)CC3)ncc12 |  | bead binding, competition bead pull-down, refers to: LINJ.36.2130 | Leishmania donovani axenic amastigote extract | 10 µM | baseline: vehicle | relative abundance | 1.06
CC[C@H](C)[C@H](NC(=O)[C@H](CCCCN)NC(=O)CNC(=O)[C@H](CC(C)C)NC(=O)[C@H](Cc1ccccc1)NC(=O)[C@H](CCCCN)NC(=O)[C@H](CO)NC(=O)[C@H](Cc1ccccc1)NC(=O)[C@H](Cc1c[nH]c2ccccc12)NC(=O)[C@H](CCC(N)=O)NC(=O)[C@@H](NC(=O)[C@H](Cc1ccccc1)NC(=O)CCCCCNC(=O)CN1CCN(CC(=O)O)CCN(CC(=O)O)CCN(CC(=O)O)CC1)C(C)C)C(=O)N[C@@H](CCC(=O)O)C(=O)N1CCC[C@H]1C(=O)N[C@@H](CC(=O)O)C(=O)N[C@H](C(=O)N[C@@H](CO)C(=O)N[C@@H](CCC(N)=O)C(=O)N[C@H](C(=O)N[C@@H](CCC(N)=O)C(=O)N[C@@H](CC(=O)O)C(=O)N1CCC[C@H]1C(=O)N[C@@H](CC(N)=O)C(=O)N[C@@H](CC(=O)O)C(=O)N[C@@H](CCC(N)=O)C(=O)N[C@@H](Cc1ccc(O)cc1)C(=O)N[C@@H](CCC(=O)O)C(=O)N1CCC[C@H]1C(=O)N[C@@H](Cc1ccccc1)C(=O)O)C(C)C)C(C)C [copper-64 labelled] |  | dynamic PET | mouse both sexes, CT26 tumour, untreated, tumour | intravenous, 100 µCi/mouse, 30 s |  | SUVmean | 0.29 SUV
CC[C@H](C)[C@H](NC(=O)CN)C(=O)N[C@@H](CCCNC(=N)N)C(=O)N[C@@H](CCCCN)C(=O)N[C@@H](Cc1c[nH]c2ccccc12)C(=O)N[C@@H](Cc1ccccc1)C(=O)N[C@@H](CCCCN)C(=O)N[C@@H](CCCCN)C(=O)N[C@@H](C)C(=O)N[C@@H](C)C(=O)N[C@@H](Cc1c[nH]cn1)C(=O)N[C@H](C(=O)NCC(=O)N[C@@H](CCCCN)C(=O)N[C@@H](CCC(=O)O)C(=O)N[C@H](C(=O)NCC(=O)N[C@@H](CCCCN)C(=O)N[C@H](C(=O)N[C@@H](C)C(=O)N[C@@H](CC(C)C)C(=O)N[C@@H](CC(N)=O)C(=O)N[C@@H](C)C(=O)N[C@@H](CS)C(=O)N[C@@H](CC(C)C)C(=O)O)C(C)C)C(C)C)C(C)C |  |  | zebrafish embryos 28 hpf, E3 medium | 24 h |  | chronic toxic concentration | 25 µM
CC[C@H](C)[C@H](NC(=O)[C@H](C)NC(=O)[C@H](CCCCN)NC(=O)[C@H](CCCCN)NC(=O)[C@@H](N)CCCNC(=N)N)C(=O)N[C@@H](CCCCN)C(=O)N[C@@H](CC(C)C)C(=O)N[C@H](C(=O)N[C@@H](CCCCN)C(=O)N[C@@H](CCCCN)C(=O)N[C@@H](CC(C)C)C(=O)N[C@H](C(=O)N[C@@H](CCCCN)C(=O)N[C@@H](CCCCN)C(=O)N[C@@H](CC(C)C)C(=O)N[C@@H](CCCCN)C(=O)N[C@@H](CCCCN)C(=O)N[C@@H](C)C(=O)N[C@@H](CC(C)C)C(=O)N[C@@H](CCCCN)C(=O)O)C(C)C)C(C)C |  |  | human red blood cells | 16 mg/L, 1 h |  | hemolysis | 2.19% and 1.29% and 2.78%
Cc1nc2cccc(OCC(C)(C)C(=O)NC(C)C)c2c(N)c1C(=O)[O-].[Na+] | Escherichia coli | Ames plate incorporation | WP2 uvrA | 0.32 mg/plate, together with: with rat liver S9 |  | revertant colonies | 39 ± 5 colonies/plate
Cc1cc(-c2ccc3ccccc3c2)nnc1NCCN1CCN(C)CC1 | Organic anion transporter 3 (SLC22A8, Homo sapiens, UniProt Q8TCC7) | transporter uptake, inhibitor |  | 10 µM |  | inhibition | 0%
CC1(C)C(=O)N(c2ccc(C#N)c(C(F)(F)F)c2)C(=S)N1c1ccc(C(N)=O)c(F)c1 |  |  | human, male, plasma | oral, 80 mg, single dose, fasting |  | Tmax | 180 ± 28 h
CC(C)Oc1c(NC(=O)c2ccc(NC(=O)[C@H](CC(N)=O)NC(=O)c3ccc(/N=N/c4ccccc4)cc3)cc2)ccc(C(=O)N/N=C/c2ccc(C(=O)O)cc2)c1O |  | absorbance | DMSO | 45 °C, PSS to ground state relaxation |  | thermal half-life | 5.7 h
CN1Cc2cc(Cl)ccc2-n2c(nnc2C2CCN(c3cccc([18F])n3)CC2)C1 |  |  | C57BL/6 mouse male, muscle | intravenous, 3.7 MBq, 1 min |  | tissue uptake | 3.63 ± 1.46 %ID/g
CSCC[C@H](NC(=O)CNC(=O)[C@H](CCCCN)NC(=O)[C@H](CC(C)C)NC(=O)[C@@H]1CCCN1C(=O)[C@H](CO)NC(=O)[C@H](Cc1c[nH]cn1)NC(=O)[C@H](Cc1c[nH]c2ccccc12)NC(=O)[C@H](CCCNC(=N)N)NC(=O)[C@H](CC(C)C)NC(=O)[C@H](CCCNC(=N)N)NC(=O)[C@H](Cc1c[nH]c2ccccc12)NC(=O)[C@H](CS)NC(=O)CCCCCNC(=O)CN1CCN(CC(=O)O)CCN(CC(=O)O)CCN(CC(=O)O)CC1)C(=O)O [copper-64 labelled] |  | ex vivo biodistribution | male C57BL/6J mice, spleen | intravenous, 1.85 MBq, 30 h, B16-F10 tumour-bearing |  | tissue uptake | 1.84 %ID/g
CS(C)(=O)=Nc1ccc(-c2ccc(-c3nc4cc(O[C@@H]5CO[C@H]6[C@@H]5OC[C@H]6O)[nH]c4cc3F)cc2)cc1 | Hepatocyte growth factor receptor (MET, Homo sapiens, UniProt P08581, Y1230D) | enzyme activity, inhibitor |  | 10 µM |  | inhibition | -45%
CC(C)[C@@H]1NC(=O)CNC(=O)[C@H](CC(N)=O)NC(=O)[C@H](CCCNC(=N)N)NC(=O)[C@H](Cc2ccc(O)cc2)NC(=O)[C@H](C(C)C)NC(=O)[C@@H](NC(=O)[C@@H](NC(=O)[C@H](CC(N)=O)NC(=O)[C@H](Cc2c[nH]c3ccccc23)NC(=O)[C@H](C)NC(=O)[C@H](Cc2ccccc2)NC(=O)CNC(=O)[C@H](CCCCN)NC(=O)[C@H](Cc2ccccc2)NC(=O)[C@H](Cc2ccccc2)NC(=O)[C@H](CCCCN)NC(=O)OCC2c3ccccc3-c3ccccc32)C(C)C)CSSC[C@@H](C(=O)N[C@@H](Cc2c[nH]cn2)C(=O)N[C@@H](CCCNC(=N)N)C(=O)N[C@@H](CCCNC(=N)N)C(=O)N[C@@H](C)C(=O)N[C@@H](CC(N)=O)C(N)=O)NC(=O)[C@H](C(C)C)NC(=O)[C@H](CCCNC(=N)N)NC1=O |  |  | ICR mice, serum | intraperitoneal, 5 mg/kg, day 5 |  | globulin | 18.62 ± 0.07 g/L
O=C(O)CCCOc1ccc(O)cc1-c1cc(-c2ccccc2C(F)(F)F)n(-c2ccccc2)n1 | Salmonella typhimurium | Ames test | TA98 | concentration not given, with S9 metabolic activation |  | growth-inhibiting concentration | 5000 µg/plate

Excerpt of the above:
SMILES | tested on | assay | test system | conditions | scale | quantity | result
O=C(O)CCCOc1ccc(O)cc1-c1cc(-c2ccccc2C(F)(F)F)n(-c2ccccc2)n1 | Salmonella typhimurium | Ames test | TA98 | concentration not given, with S9 metabolic activation |  | growth-inhibiting concentration | 5000 µg/plate
CSCC[C@H](NC(=O)CNC(=O)[C@H](CCCCN)NC(=O)[C@H](CC(C)C)NC(=O)[C@@H]1CCCN1C(=O)[C@H](CO)NC(=O)[C@H](Cc1c[nH]cn1)NC(=O)[C@H](Cc1c[nH]c2ccccc12)NC(=O)[C@H](CCCNC(=N)N)NC(=O)[C@H](CC(C)C)NC(=O)[C@H](CCCNC(=N)N)NC(=O)[C@H](Cc1c[nH]c2ccccc12)NC(=O)[C@H](CS)NC(=O)CCCCCNC(=O)CN1CCN(CC(=O)O)CCN(CC(=O)O)CCN(CC(=O)O)CC1)C(=O)O [copper-64 labelled] |  | ex vivo biodistribution | male C57BL/6J mice, spleen | intravenous, 1.85 MBq, 30 h, B16-F10 tumour-bearing |  | tissue uptake | 1.84 %ID/g
